Experimental data from different studies.
Compare with care: the assays were run in different laboratories. Values joined by “and” are separate records of one study, mostly repeats; a detail may differ. ± gives the spread as reported.

For `O=C1Nc2ccccc2/C1=N/N=C/c1cccc([N+](=O)[O-])c1`, the cytotoxic concentration was greater than 200 µg/mL (HUVEC; MTT; 24 and 48 h, 50% cell death).
`CN(C)N=O` — result for “lowest effective concentration”: 7500 µM (HepaRG 2D; DNA damage; 24 h).
Under “concentration increasing cytotoxicity”, `C=C(C[C@H](N)C(=O)O)C(=O)NCc1ccccc1` is recorded as 320 µM (MCF7; 72 h; baseline: vehicle).
`Nc1nc2c(ncn2COCCO)c(=O)[nH]1`: “minimal cytotoxic concentration” greater than 100 µM (HEL; altered cell morphology).
For `CC[C@@]12SS[C@]3(C(=O)N1C)[C@@H](O)[C@]1(C45c6ccccc6N[C@@H]4N4C(=O)[C@@]6(CC)SS[C@@]4(C(=O)N6C)[C@H]5O)c4ccccc4N[C@@H]1N3C2=O` (stereo partly shown), the IC50 was 0.49 µM (MCF7; cell growth or viability, SRB).
The relative survival of `CCCCN(CCCC)N=O` is reported as 58% (HepaRG, 3D spheroids; flow cytometry micronucleus; highest tested concentration, 24 h, plus 6 days hEGF; baseline: vehicle).
For `CC(C)C[C@H](NC(=O)[C@H](C)NC(=O)[C@H](CCCCN)NC(=O)[C@H](CCCNC(=N)N)NC(=O)[C@H](Cc1ccc(O)cc1)NC(=O)[C@H](CC(C)C)NC(=O)[C@H](CCCNC(=N)N)NC(=O)[C@H](C)NC(=O)[C@H](C)NC(=O)[C@H](CC(C)C)NC(=O)[C@H](CCCCN)NC(=O)[C@H](C)NC(=O)[C@@H](N)Cc1ccccc1)C(=O)N[C@@H](C)C(=O)N[C@@H](CCCNC(=N)N)C(=O)N[C@@H](CCC(N)=O)C(=O)N[C@@H](CC(C)C)C(=O)NCC(=O)N[C@H](C(=O)N[C@@H](C)C(=O)N[C@@H](C)C(N)=O)C(C)C`, “maximum non-lethal concentration” read 300 µM (human pleural mesothelial cells (CRL-9444); LIVE/DEAD calcein-AM/EthD-1; 24 h, 37 °C; baseline: untreated).
With `CC(C)N(N=O)C(C)C` the relative survival was 93.5% (HepaRG, 3D spheroids; concentration not given, 24 h, highest tested concentration, hEGF 6 days; baseline: vehicle).
`COC(=O)[C@H](C)NP(=O)(OCCOCn1cnc2c(=O)[nH]c(N)nc21)Oc1ccccc1` (stereo partly shown) — result for “minimal cytotoxic concentration”: greater than 100 µM (HEL; altered cell morphology).
With `H-HGLASTLTRWAHYNALIRAFGGG-NH2 (C-amide)` the internalized peptide was roughly 30% (SH-SY5Y; fluorimetry; 1 µM, 2 h, serum-free).
Under “γH2A.X fold increase”, `CN(CCCC(=O)O)N=O` is recorded as 1.5 to 1.8 fold (HepaRG, 3D spheroids; highest tested concentration, 24 h, plus 5 days, added: hEGF 100 ng/mL; baseline: vehicle).
With `Cc1cnc2ccc3c(nc(N)n3C)c2n1` the threshold concentration was 1 µM (rat primary midbrain neurons; selective dopaminergic neurotoxicity, item: TH+ over MAP2+ neurons; 24 h).
For `CC(C)Nc1nc(Cl)nc(NC(C)C)n1`, the LD50 was 2.51 µg/mL (HEK293; neutral red uptake; 24 h).
`CC(C)C[C@H](NC(=O)[C@H](CC(C)C)NC(=O)[C@H](CCCCN)NC(=O)[C@H](CC(C)C)NC(=O)[C@H](CC(C)C)NC(=O)[C@H](CCCCN)NC(=O)[C@H](CCCCN)NC(=O)[C@H](CC(C)C)NC(=O)[C@H](CC(C)C)NC(=O)[C@H](CCCCN)NC(=O)[C@H](CC(C)C)NC(=O)[C@H](CC(C)C)NC(=O)[C@@H](N)CCCCN)C(=O)N[C@@H](CCCCN)C(N)=O`: “minimal hemolytic concentration” 8 µM (human erythrocytes; 1 h, 37 °C, hemolysis ≤5%).
`C=C(C[C@H](N)C(=O)O)C(=O)NCc1ccc([N+](=O)[O-])cc1`: “concentration increasing cytotoxicity” 320 µM (MCF7; 72 h; baseline: vehicle).
With `CN1C(=O)[C@]23SS[C@@]1(C)C(=O)N2[C@H]1Nc2ccccc2[C@@]1([C@@]12c4ccccc4N[C@@H]1N1C(=O)[C@@]4(C)SS[C@]1(C(=O)N4C)[C@H]2O)[C@@H]3O` the IC50 was 0.25 µM (SF-268; cell growth or viability, SRB).
The TD50 of `NC(=O)NO` is reported as 28000 ± 1010 µM (ARPE-19, uninfected; cytotoxicity, CellTiter-Glo; 14 d).
With `COc1cc(/C=C/C(=O)OCCc2ccc(O)cc2)ccc1O` the IC50 was greater than 20 µM (Hepa-1c1c7; cytotoxicity, crystal violet; 48 h).
`CC(C)C[C@@H](NC(=O)[C@H](C)NC(=O)CNC(=O)[C@@H](NC=O)C(C)C)C(=O)N[C@@H](C)C(=O)N[C@@H](C(=O)N[C@H](C(=O)N[C@@H](C(=O)N[C@@H](Cc1c[nH]c2ccccc12)C(=O)N[C@H](CC(C)C)C(=O)N[C@@H](Cc1c[nH]c2ccccc12)C(=O)N[C@H](CC(C)C)C(=O)N[C@@H](Cc1c[nH]c2ccccc12)C(=O)N[C@H](CC(C)C)C(=O)N[C@@H](Cc1c[nH]c2ccccc12)C(=O)NCCO)C(C)C)C(C)C)C(C)C` — result for hemolysis: “no inhibition” (rat erythrocytes; concentration not given, 30 min, pH 7.4, 37 °C, added: Escherichia coli K-235 LPS, 1:5 w/w).
With `COc1cccc2c1C(=O)c1c(O)c3c(c(O)c1C2=O)C[C@@](O)(C(=O)CO)C[C@@H]3O[C@H]1C[C@H](N)[C@H](O)[C@H](C)O1` the drug efflux was 58.3% (MCF7/ADR; flow cytometry; 10 µg/mL equivalent, 4 h loading, 2 h efflux, 37 °C).
For `C/C=C(/C)C(=O)O[C@H]1C(C)=C2[C@H]([C@@H]1OC(=O)CCCCCCC)[C@@](C)(OC(C)=O)C[C@H](OC(=O)CCCCCCCCCCCNC(=O)C[C@H](N)C(=O)N[C@@H](CCC(=O)N[C@@H](CCC(=O)N[C@@H](CCC(=O)N[C@@H](CCC(=O)O)C(=O)O)C(=O)O)C(=O)O)C(=O)O)[C@@]1(O)[C@H]2OC(=O)[C@@]1(C)O`, the selectivity ratio was 57 fold and ~60 fold (TSU versus LNCaP; clonal survival; 72 h; baseline: IC50 TSU over LNCaP).
`COC(=O)[C@@H](NP(=O)(OCCOCn1cnc2c(=O)[nH]c(N)nc21)Oc1cccc2ccccc12)C(C)C` (stereo partly shown): “minimal cytotoxic concentration” greater than 100 µM (HEL; altered cell morphology).
`CC(O)[C@@]12SS[C@]3(C(=O)N1C)[C@@H](O)[C@]1([C@@]45c6ccccc6N[C@@H]4N4C(=O)[C@]6(C)SS[C@]4(C(=O)N6C)[C@H]5O)c4ccccc4N[C@@H]1N3C2=O` (stereo partly shown) gave an IC50 of 0.58 µM (MCF7; cell growth or viability, SRB).
For `CC(C)C[C@H](NC(=O)[C@H](C)NC(=O)[C@H](CCCCN)NC(=O)[C@H](CC(C)C)NC(=O)[C@H](CC(C)C)NC(=O)[C@H](CCCCN)NC(=O)[C@H](CCCCN)NC(=O)[C@H](CC(C)C)NC(=O)[C@H](CC(C)C)NC(=O)[C@H](CCCCN)NC(=O)[C@H](CC(C)C)NC(=O)[C@H](CC(C)C)NC(=O)[C@@H](N)CCCCN)C(=O)NCC(N)=O`, “minimal hemolytic concentration” read 8 µM (human erythrocytes; 1 h, 37 °C, hemolysis ≤5%).
`pneumocandin K` has a hemolysis of greater than 40% (human erythrocytes; 56.2 µg/mL, 1 h, 37 °C; baseline: Tween 20).
`C=CC[C@H](NCc1ccccc1)C(=O)N[C@@H](Cc1c[nH]c2ccccc12)C(=O)NCc1ccc(-c2ccccc2)cc1` — result for “minimum cytotoxic concentration”: no less than 100 µM (Vero; cell morphology, microscopy; 5 (unit not given)).
`Nc1nc2c(ncn2COCCOP(=O)(Oc2ccccc2)N2CCC[C@H]2C(=O)OCc2ccccc2)c(=O)[nH]1` (stereo partly shown): “minimal cytotoxic concentration” greater than 100 µM (HEL; altered cell morphology).
`C#CCCC[C@H]1OC(=O)[C@H](C(C)C)N(C)C(=O)[C@@H]2CCCN2C(=O)[C@H]([C@@H](C)CC)OC(=O)[C@H]([C@@H](C)CC)N(C)C(=O)[C@H]([C@@H](C)CC)NC(=O)[C@H]1C` has an LC50 of greater than 30 µM (HEK293; resazurin reduction; 24 h).

Some of these lines once more:
For `C/C=C(/C)C(=O)O[C@H]1C(C)=C2[C@H]([C@@H]1OC(=O)CCCCCCC)[C@@](C)(OC(C)=O)C[C@H](OC(=O)CCCCCCCCCCCNC(=O)C[C@H](N)C(=O)N[C@@H](CCC(=O)N[C@@H](CCC(=O)N[C@@H](CCC(=O)N[C@@H](CCC(=O)O)C(=O)O)C(=O)O)C(=O)O)C(=O)O)[C@@]1(O)[C@H]2OC(=O)[C@@]1(C)O`, the selectivity ratio was 57 fold and ~60 fold (TSU versus LNCaP; clonal survival; 72 h; baseline: IC50 TSU over LNCaP).
`COC(=O)[C@@H](NP(=O)(OCCOCn1cnc2c(=O)[nH]c(N)nc21)Oc1cccc2ccccc12)C(C)C` (stereo partly shown): “minimal cytotoxic concentration” greater than 100 µM (HEL; altered cell morphology).
